Results gathered from unrelated publications.
Parts stem from different laboratories: compare values within a part only.
UniProt O95835, sequence (whole entry, looked up): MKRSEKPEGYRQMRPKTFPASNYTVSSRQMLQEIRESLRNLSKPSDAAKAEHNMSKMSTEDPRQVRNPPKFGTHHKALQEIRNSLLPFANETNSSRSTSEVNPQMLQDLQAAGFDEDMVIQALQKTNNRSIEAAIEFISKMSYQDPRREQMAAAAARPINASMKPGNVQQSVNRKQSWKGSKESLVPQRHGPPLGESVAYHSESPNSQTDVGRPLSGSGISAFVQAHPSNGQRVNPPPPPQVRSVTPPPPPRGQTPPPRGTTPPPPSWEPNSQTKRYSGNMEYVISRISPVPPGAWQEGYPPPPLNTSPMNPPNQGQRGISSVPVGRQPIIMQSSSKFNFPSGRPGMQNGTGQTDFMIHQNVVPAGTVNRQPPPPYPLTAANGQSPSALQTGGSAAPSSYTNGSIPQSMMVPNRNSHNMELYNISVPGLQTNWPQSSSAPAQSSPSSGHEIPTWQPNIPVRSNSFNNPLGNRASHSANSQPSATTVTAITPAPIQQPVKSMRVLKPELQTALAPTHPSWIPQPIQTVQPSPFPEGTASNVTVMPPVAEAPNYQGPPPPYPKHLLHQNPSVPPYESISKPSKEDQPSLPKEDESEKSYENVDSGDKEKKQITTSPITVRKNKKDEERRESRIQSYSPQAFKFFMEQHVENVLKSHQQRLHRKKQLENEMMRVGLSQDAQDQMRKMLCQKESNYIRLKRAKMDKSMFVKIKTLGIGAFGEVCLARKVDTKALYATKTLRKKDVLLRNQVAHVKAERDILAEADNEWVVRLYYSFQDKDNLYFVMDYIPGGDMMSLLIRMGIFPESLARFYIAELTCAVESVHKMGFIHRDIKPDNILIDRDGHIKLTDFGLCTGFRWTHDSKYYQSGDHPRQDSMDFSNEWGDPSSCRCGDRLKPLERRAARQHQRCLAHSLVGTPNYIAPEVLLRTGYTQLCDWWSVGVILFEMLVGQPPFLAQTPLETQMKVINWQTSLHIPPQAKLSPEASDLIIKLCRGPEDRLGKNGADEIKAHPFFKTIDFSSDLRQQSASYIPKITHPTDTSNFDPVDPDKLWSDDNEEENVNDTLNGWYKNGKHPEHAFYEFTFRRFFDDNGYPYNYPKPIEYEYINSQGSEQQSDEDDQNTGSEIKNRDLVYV
UniProt Q9H4B4, sequence (whole entry, looked up): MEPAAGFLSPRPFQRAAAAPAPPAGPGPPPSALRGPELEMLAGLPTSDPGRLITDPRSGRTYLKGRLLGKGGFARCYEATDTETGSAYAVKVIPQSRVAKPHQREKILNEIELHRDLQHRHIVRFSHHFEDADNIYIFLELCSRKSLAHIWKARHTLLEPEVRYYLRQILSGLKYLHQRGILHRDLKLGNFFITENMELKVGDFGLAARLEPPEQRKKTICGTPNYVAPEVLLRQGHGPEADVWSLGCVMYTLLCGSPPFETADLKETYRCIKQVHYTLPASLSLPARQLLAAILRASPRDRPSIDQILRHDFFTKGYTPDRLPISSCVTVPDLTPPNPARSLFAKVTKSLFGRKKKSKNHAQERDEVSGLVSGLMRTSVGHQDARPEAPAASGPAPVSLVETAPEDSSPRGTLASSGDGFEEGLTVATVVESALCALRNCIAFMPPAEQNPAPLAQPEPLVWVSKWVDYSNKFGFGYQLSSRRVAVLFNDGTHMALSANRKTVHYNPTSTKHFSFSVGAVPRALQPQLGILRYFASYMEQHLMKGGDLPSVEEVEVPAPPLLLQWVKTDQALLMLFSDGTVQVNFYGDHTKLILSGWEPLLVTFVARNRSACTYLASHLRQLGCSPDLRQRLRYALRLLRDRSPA
UniProt P31751, sequence (whole entry, looked up): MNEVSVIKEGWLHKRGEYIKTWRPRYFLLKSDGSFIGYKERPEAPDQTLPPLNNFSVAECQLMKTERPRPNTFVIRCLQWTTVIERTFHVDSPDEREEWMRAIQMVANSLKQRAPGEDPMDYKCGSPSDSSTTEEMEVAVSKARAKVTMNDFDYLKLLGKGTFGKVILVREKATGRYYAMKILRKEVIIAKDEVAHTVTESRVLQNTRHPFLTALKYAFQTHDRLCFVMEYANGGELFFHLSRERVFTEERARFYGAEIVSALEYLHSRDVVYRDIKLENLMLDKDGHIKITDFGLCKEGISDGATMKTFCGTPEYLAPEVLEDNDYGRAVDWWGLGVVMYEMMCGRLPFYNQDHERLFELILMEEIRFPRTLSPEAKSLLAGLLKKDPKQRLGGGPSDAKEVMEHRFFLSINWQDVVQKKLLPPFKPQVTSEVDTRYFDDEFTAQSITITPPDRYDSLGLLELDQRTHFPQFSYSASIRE
UniProt P51956, sequence (whole entry, looked up): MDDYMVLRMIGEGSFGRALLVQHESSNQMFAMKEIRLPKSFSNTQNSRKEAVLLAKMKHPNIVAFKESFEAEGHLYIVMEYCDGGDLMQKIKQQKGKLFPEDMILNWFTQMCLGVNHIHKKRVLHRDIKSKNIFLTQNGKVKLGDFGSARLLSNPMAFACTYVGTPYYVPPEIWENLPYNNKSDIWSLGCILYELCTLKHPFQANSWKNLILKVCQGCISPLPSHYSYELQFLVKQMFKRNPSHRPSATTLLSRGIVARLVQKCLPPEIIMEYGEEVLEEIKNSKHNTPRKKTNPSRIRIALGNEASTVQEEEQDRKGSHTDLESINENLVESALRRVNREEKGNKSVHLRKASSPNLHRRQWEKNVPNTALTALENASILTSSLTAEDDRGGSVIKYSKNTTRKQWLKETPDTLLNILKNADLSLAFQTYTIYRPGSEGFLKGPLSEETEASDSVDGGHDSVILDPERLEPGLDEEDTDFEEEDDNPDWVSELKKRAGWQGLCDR
UniProt Q15759, sequence (whole entry, looked up): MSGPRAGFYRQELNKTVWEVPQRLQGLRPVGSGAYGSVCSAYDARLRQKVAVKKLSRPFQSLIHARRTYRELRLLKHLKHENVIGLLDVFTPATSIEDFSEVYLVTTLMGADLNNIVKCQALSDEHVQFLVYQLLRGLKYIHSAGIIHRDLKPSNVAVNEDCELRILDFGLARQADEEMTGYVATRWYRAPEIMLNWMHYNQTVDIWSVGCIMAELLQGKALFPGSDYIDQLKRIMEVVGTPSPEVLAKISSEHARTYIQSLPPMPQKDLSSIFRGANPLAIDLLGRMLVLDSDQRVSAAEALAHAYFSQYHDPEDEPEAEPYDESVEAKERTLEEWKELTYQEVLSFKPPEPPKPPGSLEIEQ
UniProt P35968, sequence (whole entry, looked up): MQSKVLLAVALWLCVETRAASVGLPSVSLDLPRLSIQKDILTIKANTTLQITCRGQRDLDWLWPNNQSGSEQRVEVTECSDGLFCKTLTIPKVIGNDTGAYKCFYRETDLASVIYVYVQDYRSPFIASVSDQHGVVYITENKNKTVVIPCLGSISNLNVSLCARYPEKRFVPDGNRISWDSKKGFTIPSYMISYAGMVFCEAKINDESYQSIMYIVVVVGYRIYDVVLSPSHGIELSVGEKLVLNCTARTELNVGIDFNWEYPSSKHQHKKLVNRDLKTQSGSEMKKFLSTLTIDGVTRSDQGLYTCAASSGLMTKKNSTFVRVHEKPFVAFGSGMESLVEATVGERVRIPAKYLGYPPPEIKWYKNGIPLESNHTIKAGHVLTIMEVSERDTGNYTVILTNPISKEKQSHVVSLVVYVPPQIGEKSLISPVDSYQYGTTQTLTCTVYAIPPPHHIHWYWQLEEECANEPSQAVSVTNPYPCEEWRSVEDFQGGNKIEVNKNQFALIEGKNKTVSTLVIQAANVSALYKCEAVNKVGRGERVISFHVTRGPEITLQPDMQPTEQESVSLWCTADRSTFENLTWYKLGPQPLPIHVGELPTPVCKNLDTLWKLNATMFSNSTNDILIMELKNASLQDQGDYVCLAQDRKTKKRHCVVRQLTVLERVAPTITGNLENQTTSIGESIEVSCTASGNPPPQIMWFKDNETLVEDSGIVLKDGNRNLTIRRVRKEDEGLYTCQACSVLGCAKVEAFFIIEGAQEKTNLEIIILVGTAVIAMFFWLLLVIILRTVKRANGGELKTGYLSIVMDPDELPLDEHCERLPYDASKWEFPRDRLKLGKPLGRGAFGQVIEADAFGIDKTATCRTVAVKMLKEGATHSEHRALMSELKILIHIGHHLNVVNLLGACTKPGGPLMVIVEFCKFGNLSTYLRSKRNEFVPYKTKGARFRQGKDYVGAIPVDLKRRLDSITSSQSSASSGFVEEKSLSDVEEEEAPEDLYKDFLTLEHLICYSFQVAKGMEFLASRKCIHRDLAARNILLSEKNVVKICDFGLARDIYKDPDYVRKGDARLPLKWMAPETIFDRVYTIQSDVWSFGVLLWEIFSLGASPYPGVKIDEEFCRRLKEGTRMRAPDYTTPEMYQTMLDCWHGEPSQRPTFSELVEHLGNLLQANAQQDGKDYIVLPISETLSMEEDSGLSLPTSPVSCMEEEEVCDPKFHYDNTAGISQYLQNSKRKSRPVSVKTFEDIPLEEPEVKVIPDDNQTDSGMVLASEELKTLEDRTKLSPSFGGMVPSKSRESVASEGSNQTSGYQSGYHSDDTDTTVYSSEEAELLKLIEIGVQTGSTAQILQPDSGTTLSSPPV
UniProt Q9HCP0, sequence (whole entry, looked up): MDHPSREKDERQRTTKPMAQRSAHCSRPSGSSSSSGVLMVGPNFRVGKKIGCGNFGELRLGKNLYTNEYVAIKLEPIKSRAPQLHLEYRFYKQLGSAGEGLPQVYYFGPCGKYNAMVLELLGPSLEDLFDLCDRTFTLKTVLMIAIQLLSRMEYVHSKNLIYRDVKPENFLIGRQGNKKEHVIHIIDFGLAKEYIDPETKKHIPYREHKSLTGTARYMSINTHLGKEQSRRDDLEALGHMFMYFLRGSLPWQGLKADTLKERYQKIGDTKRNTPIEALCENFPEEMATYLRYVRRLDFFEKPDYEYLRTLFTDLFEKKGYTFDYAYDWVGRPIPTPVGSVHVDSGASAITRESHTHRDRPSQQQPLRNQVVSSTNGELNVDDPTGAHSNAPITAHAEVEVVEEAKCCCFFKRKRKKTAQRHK

Block 1 — cell line: mouse MPNST tumor cells; method: high-content nuclear imaging; item: cell number; concentration: 10 µM; time: 12 h; notes: mean of 2 replicates; baseline: plate mean; reading: higher = more cells
For `CCc1c(C(=O)Nc2cc(S(=O)(=O)N(CC)CC)ccc2O)[nH]c(C)c1C(C)=O`, the nuclei count was 0.505 z-score.
`Cc1cc(F)c(Nc2ncnc3cc(OCc4ccccc4)ccc23)cc1O` gave a nuclei count of 3.34 z-score.
`O=C(Nc1cc(C(F)(F)F)cc(C(F)(F)F)c1)Nc1c(Br)cc(Br)cc1-c1nn[nH]n1` has a nuclei count of 1.43 z-score.
With `NCCNS(=O)(=O)c1ccc(Cl)c2ccncc12` the nuclei count was 1.27 z-score.
With `Clc1ccc(CSC(Cn2ccnc2)c2ccc(Cl)cc2Cl)cc1` (stereo not drawn) the nuclei count was 1.53 z-score.

Block 2 — SMILES: c1ccc(N2CCN(Cc3nc4ccccc4[nH]3)CC2)nc1; method: competition with immobilised ligand; concentration: 1 µM
For Rhodopsin kinase GRK1 (GRK1, Homo sapiens, UniProt Q15835); binding: remaining binding read 92%.
For Serine/threonine-protein kinase B-raf (BRAF, Homo sapiens, UniProt P15056); cell-free assay: remaining binding read 100%.
It gave 100% for remaining binding (1-phosphatidylinositol 3-phosphate 5-kinase (PIKFYVE, Homo sapiens, UniProt Q9Y2I7); binding).
For Serine/threonine-protein kinase LATS1 (LATS1, Homo sapiens, UniProt O95835); binding: remaining binding read 100%.
The remaining binding was 100% (Tyrosine-protein kinase Tec (TEC, Homo sapiens, UniProt P42680); binding).
It gave 100% for remaining binding (Casein kinase I isoform gamma-1 (CSNK1G1, Homo sapiens, UniProt Q9HCP0); cell-free assay).

Block 3 — cell line: HaCaT; concentration: 100 µM; time: 18 h
For `O=C(COc1ccc(Cl)cc1)N1CCN(Cc2ccc3c(c2)OCO3)CC1`, the viability was 90.7%.
`NC(=O)c1cccnc1` gave a viability of 120%.
`CC(C)C[C@H](NC(=O)[C@H](CCc1ccccc1)NC(=O)CN1CCOCC1)C(=O)N[C@@H](Cc1ccccc1)C(=O)N[C@@H](CC(C)C)C(=O)[C@@]1(C)CO1` has a viability of 27.9%.
`NC[C@@H]1O[C@H](O[C@H]2[C@@H](O)[C@H](O[C@@H]3[C@@H](O)[C@H](N)C[C@H](N)[C@H]3O[C@H]3O[C@H](CO)[C@@H](O)[C@H](O)[C@H]3N)O[C@@H]2CO)[C@H](N)[C@@H](O)[C@@H]1O` gave a viability of 111%.
With `CCCCC(C)(O)C/C=C/[C@H]1[C@H](O)CC(=O)[C@@H]1CCCCCCC(=O)OC` (mixture of isomers) the viability was 108%.

Block 4 — SMILES: COc1ccc(Cl)cc1NC(=O)Nc1cc(C)nc2ccccc12; observed: enzyme activity; mode: inhibitor; concentration: 0.5 µM; baseline: control
The remaining activity was 94% (Ribosomal protein S6 kinase alpha-4 (RPS6KA4, Homo sapiens, UniProt O75676)).
The remaining activity was 92.8% (Vascular endothelial growth factor receptor 2 (KDR, Homo sapiens, UniProt P35968)).
The remaining activity was 100% (Serine/threonine-protein kinase PLK3 (PLK3, Homo sapiens, UniProt Q9H4B4)).
It gave 88.7% for remaining activity (Misshapen-like kinase 1 (MINK1, Homo sapiens, UniProt Q8N4C8)).
The remaining activity was 99.5% (Serine/threonine-protein kinase MARK2 (MARK2, Homo sapiens, UniProt Q7KZI7)).
The remaining activity was 90.4% (Mitogen-activated protein kinase 1 (MAPK1, Homo sapiens, UniProt P28482)).
The remaining activity was 105% (cGMP-dependent protein kinase 2 (PRKG2, Homo sapiens, UniProt Q13237)).
For Serine/threonine-protein kinase MRCK beta (CDC42BPB, Homo sapiens, UniProt Q9Y5S2): remaining activity read 94.4%.
It gave 98.9% for remaining activity (Serine/threonine-protein kinase PAK 3 (PAK3, Homo sapiens, UniProt O75914)).
Mitogen-activated protein kinase 11 (MAPK11, Homo sapiens, UniProt Q15759) — remaining activity: 92%.
It gave 96.6% for remaining activity (Hepatocyte growth factor receptor (MET, Homo sapiens, UniProt P08581)).
RAC-beta serine/threonine-protein kinase (AKT2, Homo sapiens, UniProt P31751) — remaining activity: 94.9%.
The remaining activity was 114% (Serine/threonine-protein kinase Nek3 (NEK3, Homo sapiens, UniProt P51956)).
For Dual specificity protein kinase CLK3 (CLK3, Homo sapiens, UniProt P49761): remaining activity read 97.5%.

Some of these lines once more (block 2):
The remaining binding was 100% (Tyrosine-protein kinase Tec (TEC, Homo sapiens, UniProt P42680); binding).
For Rhodopsin kinase GRK1 (GRK1, Homo sapiens, UniProt Q15835); binding: remaining binding read 92%.
It gave 100% for remaining binding (Casein kinase I isoform gamma-1 (CSNK1G1, Homo sapiens, UniProt Q9HCP0); cell-free assay).
